Measurements gathered from unrelated publications.
Lines come from different studies, so protocols differ. Several values in a cell are separate wells, animals, samples, runs or records.
Technique: steady-state kinetics
B1: enzyme R120K (Arabidopsis thaliana, UniProt O82390); chain MNARALLCSSNIHSLYTSNRPPEKTSSSRSLRNLKPSPKSLRVWIYPRNRSSVFRVLVRSSDKSESSNSYYVEGDKVSGNNDVVSDSPSSIVLPWWEEFPKRWVIVLLCFSAFLLCNMDKVNMSIAILPMSAEYGWNPATVGLIQSSFFWGYLLTQIAGGIWADTVGGKRVLGFGVIWWSIATILTPVAAKLGLPYLLVVRAFMGVGEGVAMPAMNNILSKWVPVQERSRSLALVYSGMYLGSVTGLAFSPFLIHQFGWPSVFYSFGSLGTVWLTLWLTKAESSPLEDPTLLPEERKLIADNCASKEPVKSIPWRLILSKPPVWALISCHFCHNWGTFILLTWMPTYYHQVLKFNLMESGLLSVFPWMTMAISANAGGWIADTLVSRGFSVTNVRKIMQTIGFLGPAFFLTQLKHIDSPTMAVLCMACSQGTDAFSQSGLYSNHQDIAPRYSGVLLGLSNTAGVLAGVLGTAATGHILQHGSWDDVFTISVGLYLVGTVIWNLFSTGEKIID
B2: cyc1 F96Y (Streptomyces coelicolor, UniProt Q9K499); chain MHAFPHGTTATPTAIAVPPSLRLPVIEAAFPRQLHPYWPKLQETTRTWLLEKRLMPADKVEEYADGLCYTDLMAGYYLGAPDEVLQAIADYSAWFYVWDDRHDRDIVHGRAGAWRRLRGLLHTALDSPGDHLHHEDTLVAGFADSVRRLYAFLPATWNARFARHFHTVIEAYDREFHNRTRGIVPGVEEYLELRRLTFAHWIWTDLLEPSSGCELPDAVRKHPAYRRAALLSQEFAAWYNDLCSLPKEIAGDEVHNLGISLITHHSLTLEEAIGEVRRRVEECITEFLAVERDALRFADELADGTVRGKELSGAVRANVGNMRNWFSSVYWFHHESGRYMVDSWDDRSTPPYVNNEAAGEK
B3: CASK (Homo sapiens, UniProt O14936); chain MADDDVLFEDVYELCEVIGKGPFSVVRRCINRETGQQFAVKIVDVAKFTSSPGLSTEDLKREASICHMLKHPHIVELLETYSSDGMLYMVFEFMDGADLCFEIVKRADAGFVYSEAVASHYMRQILEALRYCHDNNIIHRDVKPHCVLLASKENSAPVKLGGFGVAIQLGESGLVAGGRVGTPHFMAPEVVKREPYGKPVDVWGCGVILFILLSGCLPFYGTKERLFEGIIKGKYKMNPRQWSHISESAKDLVRRMLMLDPAERITVYEALNHPWLKERDRYAYKIHLPETVEQLRKFNARRKLKGAVLAAVSSHKFNSFYGDPPEELPDFSEDPTS
B4: Comt (Rattus norvegicus, UniProt P22734); chain MPLAAVSLGLLLLALLLLLRHLGWGLVTIFWFEYVLQPVHNLIMGDTKEQRILRYVQQNAKPGDPQSVLEAIDTYCTQKEWAMNVGDAKGQIMDAVIREYSPSLVLELGAYCGYSAVRMARLLQPGARLLTMEMNPDYAAITQQMLNFAGLQDKVTILNGASQDLIPQLKKKYDVDTLDMVFLDHWKDRYLPDTLLLEKCGLLRKGTVLLADNVIVPGTPDFLAYVRGSSSFECTHYSSYLEYMKVVDGLEKAIYQGPSSPDKS
B5: Mj-MAT W387F/Y233W (Methanocaldococcus jannaschii, UniProt Q58605); chain MRNIIVKKLDVEPIEERPTEIVERKGLGHPDSICDGIAESVSRALCKMYMEKFGTILHHNTDQVELVGGHAYPKFGGGVMVSPIYILLSGRATMEILDKEKNEVIKLPVGTTAVKAAKEYLKKVLRNVDVDKDVIIDCRIGQGSMDLVDVFERQKNEVPLANDTSFGVGYAPLSTTERLVLETERFLNSDELKNEIPAVGEDIKVMGLREGKKITLTIAMAVVDRYVKNIEEWKEVIEKVRKKVEDLAKKIADGYEVEIHINTADDYERESVYLTVTGTSAEMGDDGSVGRGNRVNGLITPFRPMSMEAASGKNPVNHVGKIYNILANLIANDIAKLEGVKECYVRILSQIGKPINEPKALDIEIITEDSYDIKDIEPKAKEIANKFLDNIMEVQKMIVEGKVTTF
UniProt O60656, sequence (whole entry, looked up): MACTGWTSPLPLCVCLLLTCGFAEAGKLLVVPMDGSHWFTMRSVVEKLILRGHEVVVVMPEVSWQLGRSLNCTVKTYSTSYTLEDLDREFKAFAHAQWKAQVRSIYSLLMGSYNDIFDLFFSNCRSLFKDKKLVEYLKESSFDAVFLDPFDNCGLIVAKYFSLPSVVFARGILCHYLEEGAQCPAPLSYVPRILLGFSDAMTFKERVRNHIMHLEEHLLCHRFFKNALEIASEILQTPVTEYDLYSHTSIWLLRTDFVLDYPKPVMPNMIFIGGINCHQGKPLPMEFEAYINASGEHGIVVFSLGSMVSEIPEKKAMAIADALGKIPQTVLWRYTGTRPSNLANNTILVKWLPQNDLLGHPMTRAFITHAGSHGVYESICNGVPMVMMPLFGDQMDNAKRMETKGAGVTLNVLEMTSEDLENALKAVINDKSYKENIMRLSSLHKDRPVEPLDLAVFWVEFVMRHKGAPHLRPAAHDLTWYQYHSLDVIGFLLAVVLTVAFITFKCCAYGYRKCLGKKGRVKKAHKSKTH
UniProt P0A6Z1, sequence (whole entry, looked up): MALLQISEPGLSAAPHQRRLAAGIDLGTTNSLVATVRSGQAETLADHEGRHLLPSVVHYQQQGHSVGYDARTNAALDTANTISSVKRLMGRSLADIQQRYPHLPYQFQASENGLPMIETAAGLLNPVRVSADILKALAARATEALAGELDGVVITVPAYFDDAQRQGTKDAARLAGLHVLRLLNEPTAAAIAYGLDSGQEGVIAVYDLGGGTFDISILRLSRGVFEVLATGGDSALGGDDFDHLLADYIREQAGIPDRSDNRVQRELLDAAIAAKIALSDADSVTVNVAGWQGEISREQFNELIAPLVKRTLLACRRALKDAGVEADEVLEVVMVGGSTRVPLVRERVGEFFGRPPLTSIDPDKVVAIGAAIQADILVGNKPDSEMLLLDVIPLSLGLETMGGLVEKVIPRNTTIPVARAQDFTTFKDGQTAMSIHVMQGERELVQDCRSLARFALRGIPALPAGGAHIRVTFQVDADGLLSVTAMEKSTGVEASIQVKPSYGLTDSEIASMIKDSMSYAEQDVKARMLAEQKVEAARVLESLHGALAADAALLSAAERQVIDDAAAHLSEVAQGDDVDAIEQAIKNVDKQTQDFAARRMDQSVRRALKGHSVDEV
UniProt Q8N6T7, sequence (whole entry, looked up): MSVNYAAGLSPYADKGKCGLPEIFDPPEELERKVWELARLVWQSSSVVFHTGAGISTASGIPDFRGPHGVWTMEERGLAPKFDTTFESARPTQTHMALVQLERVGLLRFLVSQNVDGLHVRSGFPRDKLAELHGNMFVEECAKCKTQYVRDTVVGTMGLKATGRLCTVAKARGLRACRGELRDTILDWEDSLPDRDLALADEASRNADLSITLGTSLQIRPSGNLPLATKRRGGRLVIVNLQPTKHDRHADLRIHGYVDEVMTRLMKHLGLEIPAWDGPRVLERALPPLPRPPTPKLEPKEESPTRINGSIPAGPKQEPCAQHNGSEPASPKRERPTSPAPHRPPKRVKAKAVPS
UniProt P94679, sequence (whole entry, looked up): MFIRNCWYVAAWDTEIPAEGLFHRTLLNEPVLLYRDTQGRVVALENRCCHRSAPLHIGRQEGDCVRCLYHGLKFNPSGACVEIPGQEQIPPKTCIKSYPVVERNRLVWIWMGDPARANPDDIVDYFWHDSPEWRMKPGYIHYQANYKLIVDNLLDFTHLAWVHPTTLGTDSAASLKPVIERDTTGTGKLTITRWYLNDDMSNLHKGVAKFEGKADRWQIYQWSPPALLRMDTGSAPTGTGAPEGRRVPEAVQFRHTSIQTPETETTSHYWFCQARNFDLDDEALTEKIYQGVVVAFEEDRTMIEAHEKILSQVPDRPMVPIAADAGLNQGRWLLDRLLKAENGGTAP
UniProt P19337, sequence (whole entry, looked up): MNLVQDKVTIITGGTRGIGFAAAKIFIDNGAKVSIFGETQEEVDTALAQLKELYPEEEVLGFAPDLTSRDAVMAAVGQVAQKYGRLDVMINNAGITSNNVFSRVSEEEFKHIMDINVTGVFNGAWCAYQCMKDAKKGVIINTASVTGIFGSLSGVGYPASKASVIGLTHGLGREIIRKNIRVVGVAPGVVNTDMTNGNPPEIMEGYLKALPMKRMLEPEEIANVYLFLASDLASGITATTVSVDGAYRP
UniProt P06757, sequence (whole entry, looked up): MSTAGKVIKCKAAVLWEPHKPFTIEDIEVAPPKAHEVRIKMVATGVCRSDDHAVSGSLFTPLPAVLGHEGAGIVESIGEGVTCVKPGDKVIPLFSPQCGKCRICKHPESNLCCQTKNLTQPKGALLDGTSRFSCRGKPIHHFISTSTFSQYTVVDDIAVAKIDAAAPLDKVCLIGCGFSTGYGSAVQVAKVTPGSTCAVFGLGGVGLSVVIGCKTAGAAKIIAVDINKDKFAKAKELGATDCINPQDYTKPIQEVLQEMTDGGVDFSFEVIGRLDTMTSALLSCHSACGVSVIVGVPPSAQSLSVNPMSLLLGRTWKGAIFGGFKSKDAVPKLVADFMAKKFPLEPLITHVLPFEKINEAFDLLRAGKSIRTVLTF
UniProt Q11206, sequence (whole entry, looked up): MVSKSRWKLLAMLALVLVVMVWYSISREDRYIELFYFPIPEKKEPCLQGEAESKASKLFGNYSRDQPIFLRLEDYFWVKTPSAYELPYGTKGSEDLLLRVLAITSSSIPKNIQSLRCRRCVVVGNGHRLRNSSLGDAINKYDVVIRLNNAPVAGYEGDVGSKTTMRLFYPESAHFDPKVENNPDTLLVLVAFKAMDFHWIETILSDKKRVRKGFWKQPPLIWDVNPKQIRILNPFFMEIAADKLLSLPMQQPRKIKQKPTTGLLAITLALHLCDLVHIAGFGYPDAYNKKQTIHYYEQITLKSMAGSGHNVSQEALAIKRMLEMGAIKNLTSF

LovD A190T/A86V/C40A/C60N/D12G/G275S/H161Y/K26E/L361M/V334D (Aspergillus terreus)
Km (CCC(C)(C)C(=O)SCCC(=O)OC; 25 °C, 10% DMSO, together with: 2 mM MJA): 630 µM

BaiA2 (Clostridium scindens, UniProt P19337)
Km (NC(=O)c1ccc[n+]([C@@H]2O[C@H](COP(=O)(O)OP(=O)(O)OC[C@H]3O[C@@H](n4cnc5c(N)ncnc54)[C@H](O)[C@@H]3O)[C@@H](O)[C@H]2O)c1; pH 8.7, 37 °C, cofactor from expression host, cofactor varied): 6.7 µM

B1 (enzyme R120K)
Km (O=P(O)(O)O; pH 6.5, 25 °C, apparent, not purified): 161 µM

enzyme (Rattus norvegicus, UniProt P06757)
Km (OC1CCCCC1; pH 7.3, 37 °C): 540 µM

hscA (Escherichia coli, UniProt P0A6Z1)
Km (Nc1ncnc2c1ncn2[C@@H]1O[C@H](COP(=O)(O)OP(=O)(O)OP(=O)(O)O)[C@@H](O)[C@H]1O; pH 7.3, 25 °C): 22.8 µM

B2 (cyc1 F96Y)
Km (CC(C)=CCC/C(C)=C/CC/C(C)=C/CO[P@@](=O)(O)OP(=O)(O)O; pH 6.5, 30 °C, together with: MgCl2 10 mM): 1.8 µM

B3 (CASK)
Km (Nc1ncnc2c1ncn2[C@@H]1O[C@H](COP(=O)(O)OP(=O)(O)OP(=O)(O)O)[C@@H](O)[C@H]1O; pH 7.4, 30 °C, NaCl 100 mM, no added metal): 1640 µM

tsaM1 (Comamonas testosteroni, UniProt P94679)
Km (COc1cc(C(=O)O)ccc1O; apparent, together with: NADH 1 mM): 182 µM

B4 (Comt)
Km (O=c1oc2c(O)c(O)ccc2cc1-c1nc2ccccc2s1; rat liver S9; pH 7.4, 37 °C): 1.1 µM

protein (Cyanidioschyzon merolae, UniProt Q84Y91)
Km (Nc1nc2c(ncn2[C@@H]2O[C@H](COP(=O)(O)OP(=O)(O)OP(=O)(O)O)[C@@H](O)[C@H]2O)c(=O)[nH]1; pH 7.5, basal, without liposomes): 113 µM

B5 (Mj-MAT W387F/Y233W)
Km (CSCC[C@H](N)C(=O)O; 55 °C, together with: ATP 2.5 mM, methionine 0.05-1 mM): 470 µM

UGT1A9 (Homo sapiens, UniProt O60656)
Vmax (O=c1c(O)c(-c2ccc(O)c(O)c2)oc2cc(O)cc(O)c12; pH 7.4, 37 °C): 0.00382 µmol/min/mg and 0.00188 µmol/min/mg and 0.0033 µmol/min/mg

ST3GAL4 (Homo sapiens, UniProt Q11206)
Km (CC(=O)N[C@H]1[C@H](O[C@H]2[C@@H](O)[C@@H](CO)O[C@@H](Oc3ccc([N+](=O)[O-])cc3)[C@@H]2O)O[C@H](CO)[C@@H](O[C@@H]2O[C@H](CO)[C@H](O)[C@H](O)[C@H]2O)[C@@H]1O; pH 6, together with: CMP-Neu5Ac 0.5 mM): 140 µM

SIRT6 (Homo sapiens, UniProt Q8N6T7)
Km (CSCC[C@H](NC(=O)[C@H](CC(C)C)NC(=O)[C@H](CCCCNC(C)=O)NC(=O)[C@H](CCCCN)NC(=O)[C@H](Cc1c[nH]cn1)NC(=O)[C@H](CCCNC(=N)N)NC(=O)[C@H](CO)NC(=O)[C@@H](NC(=O)[C@H](CO)NC(=O)[C@H](CCC(N)=O)NC(=O)CNC(=O)[C@H](CCCCN)NC(=O)[C@@H](N)CCCCN)[C@@H](C)O)C(=O)N[C@@H](Cc1ccccc1)C(=O)N[C@@H](CCCCN)C(=O)N[C@H](C(=O)N[C@@H](CCC(=O)O)C(=O)NCC(=O)O)[C@@H](C)O; pH 7.5, 37 °C, together with: NAD+ 800 µM, SIRT6 10 µM): 1600 µM

A few entries again:
LovD A190T/A86V/C40A/C60N/D12G/G275S/H161Y/K26E/L361M/V334D (Aspergillus terreus)
Km (CCC(C)(C)C(=O)SCCC(=O)OC; 25 °C, 10% DMSO, together with: 2 mM MJA): 630 µM
